Measurements pooled from the literature.
Each line is one published result; not all experiments were run side by side.

NCCONC(=O)[C@@H]1CC[C@@H]2CN1C(=O)N2OS(=O)(=O)O
adverse event incidence (refers to: increased bile acids; healthy Chinese men; intravenous, 2 g, treatment-emergent): 0%

FC(F)(F)c1ccc(CNc2ccc(Cc3c[nH]c4ncc(Cl)cc34)cn2)cn1
adverse event incidence (refers to: neutropenia; patients with advanced solid tumours; oral, dose not given, grade 3 and 4, possibly related to drug): 9%

Cc1cc(Nc2ccc(S(F)(F)(F)(F)F)cc2)n2nc(C(C)(F)F)nc2n1
adverse event Stomatitis (Plasmodium falciparum malaria patients; oral, 400 mg): 0%

Cc1c(C(=O)O)ccc2c3n(nc12)[C@@H]1[C@H](C3)N(CC2CC2)[C@@]2(C(=O)Nc3cc(Cl)ccc32)[C@H]1c1cccc(Cl)c1F
adverse event incidence (phase Ia trial, refers to: Diarrhea; cancer patients; oral, dose not given, all patients all grades): 38.9%

CC[C@H](C)[C@H](NC(=O)[C@H](Cc1ccccc1)NC(=O)[C@H](CCC(=O)O)NC(=O)[C@H](CCCCNC(=O)COCCOCCNC(=O)COCCOCCNC(=O)CC[C@H](NC(=O)CCCCCCCCCCCCCCCCC(=O)O)C(=O)O)NC(=O)[C@H](C)NC(=O)[C@H](C)NC(=O)[C@H](CCC(N)=O)NC(=O)CNC(=O)[C@H](CCC(=O)O)NC(=O)[C@H](CC(C)C)NC(=O)[C@H](Cc1ccc(O)cc1)NC(=O)[C@H](CO)NC(=O)[C@H](CO)NC(=O)[C@@H](NC(=O)[C@H](CC(=O)O)NC(=O)[C@H](CO)NC(=O)[C@@H](NC(=O)[C@H](Cc1ccccc1)NC(=O)[C@@H](NC(=O)CNC(=O)[C@H](CCC(=O)O)NC(=O)C(C)(C)NC(=O)[C@@H](N)Cc1cnc[nH]1)[C@@H](C)O)[C@@H](C)O)C(C)C)C(=O)N[C@@H](C)C(=O)N[C@@H](Cc1c[nH]c2ccccc12)C(=O)N[C@@H](CC(C)C)C(=O)N[C@H](C(=O)N[C@@H](CCCNC(=N)N)C(=O)NCC(=O)N[C@@H](CCCNC(=N)N)C(=O)NCC(=O)O)C(C)C
adverse event incidence (refers to: Eructation; type 2 diabetes patients; dose not given; relative to: subjects): 13.3%

O=C1CCc2ccc(OCCCCN3CCN(c4cccc(Cl)c4Cl)CC3)cc2N1
adverse event incidence (refers to: Constipation; patients, CYP2D6 ultrarapid metabolizers; dose not given, long-acting oral or depot): 0%

CC(C)n1c(Nc2cccnc2)nc2cnc(Nc3ccc(N4CCN(C)CC4)cc3)nc21
adverse event incidence (refers to: Rash; healthy male subjects; oral, 100 mg, added: itraconazole): 7.1%

Cc1c(Cl)c(C)[n+]([O-])c(Cl)c1-c1noc(-c2cc(O)c(O)c([N+](=O)[O-])c2)n1
adverse drug reaction incidence (refers to: Presyncope; healthy Chinese subjects; oral, 100 mg, 4 days): 0%
